Published values from different studies.
Parts stem from different laboratories: compare values within a part only. Changes are numbered by the printed parent chain.

Series 1 — method: protein binding microarray; form: double-stranded DNA, one strand shown; matrix: in vitro; tested at: not given; reference: not given; direction: higher = stronger binding
Target: Histone acetyltransferase KAT6A, winged helix 1, GST fusion (KAT6A, Homo sapiens, UniProt Q92794, residues 1-85)
Setting: 8-mer, flanks averaged, mean of 2 arrays, mostly near background
Target sequence (chain): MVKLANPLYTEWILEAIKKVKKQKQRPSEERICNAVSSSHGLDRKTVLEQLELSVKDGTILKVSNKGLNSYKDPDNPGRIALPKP
| Sequence | E-score |
| --- | --- |
| CCTTGAGA | -0.252 |
| AATGCGAT | -0.0437 |
| AGCGCAGC | 0.313 |
| CACCCGCC | 0.342 |
| CACAAGAC | -0.149 |
| CTCGGACA | 0.0385 |
| CGCTAATC | 0.136 |
| ACGGCCGA | 0.396 |
| TTTAAAAA | -0.127 |
| ACCACGGA | 0.179 |
| ATATCCAA | -0.179 |
| ATCTCCTC | -0.114 |
| ATGAATCA | -0.114 |
| CTGATGGC | -0.000285 |
| GCGAGATA | -0.0106 |
| AGGGCTGC | -0.0767 |
| GTCACATA | -0.0201 |
| AGTCCGAA | 0.0207 |
| ATATCCCA | 0.00108 |
| TGACGAAA | -0.195 |
| CGCTAGGA | -0.0768 |
| TACTACGA | -0.13 |
| TCCAAGCA | -0.163 |
| CGAAGCCA | -0.0722 |
| CCTCGCCG | 0.299 |

Series 2 — method: RNA Bind-n-Seq; form: RNA; matrix: in vitro; tested at: 1 µM; setting: whole 134-nt RNA, ends assumed; together with: 150 mM KCl; reference: input library; direction: higher = stronger binding
Target: Ras GTPase-activating protein-binding protein 1, RRM domain (G3BP1, Homo sapiens, UniProt Q13283)
Sequence of UniProt Q13283 (whole entry, looked up): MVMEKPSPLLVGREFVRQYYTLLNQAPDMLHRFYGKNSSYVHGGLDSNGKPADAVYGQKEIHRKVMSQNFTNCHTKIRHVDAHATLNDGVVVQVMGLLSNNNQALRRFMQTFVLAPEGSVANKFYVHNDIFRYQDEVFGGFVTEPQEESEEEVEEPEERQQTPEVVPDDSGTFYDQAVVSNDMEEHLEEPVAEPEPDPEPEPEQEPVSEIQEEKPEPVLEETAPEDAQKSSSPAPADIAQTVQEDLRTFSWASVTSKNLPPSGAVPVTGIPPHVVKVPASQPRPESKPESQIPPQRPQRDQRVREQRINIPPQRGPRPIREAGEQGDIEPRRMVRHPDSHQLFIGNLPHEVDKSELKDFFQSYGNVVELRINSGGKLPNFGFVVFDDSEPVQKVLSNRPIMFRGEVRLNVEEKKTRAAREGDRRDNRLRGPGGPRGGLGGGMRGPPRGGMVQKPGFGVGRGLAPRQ
Constant ends, left off below: GGGAGUUCUACAGUCCGACGAUC … UGGAAUUCUCGGGUGUCAAGG
| Sequence | log2 enrichment |
| --- | --- |
| UAACUUUAGAGGAGGAUCUGAUGGAUAUGGCAGUGGACGUAGAUUUGGGGAUGGCUAUAAUGGGUAUGGAGGAGGACCUGGAGGUGGCAA | -0.325 |
| UAAUUUUAGAGGAGGAUCUGAUGGAUAUGGCAGUGGACGUGGAUUUGGGGAUGGCUAUAAUGGGUAUGGAGGAGGACCUGGAGGUGGCAA | -0.629 |
| ACCAUGCAGGUGGGCAUCUUUGGGAAGUGGGGCAAGGGGGGGAUACGGAGGGGGGUAACACUUUGGGAACAGGUGGUCCCAGGUCGUUUC | 1 |
| AAGUCCUGUGCUACACAUCGUAUGUACCGAAUCAAACCCCCAAAUUUAAACCCAAAAAAGUAUUAUGUUACGCCGUUCGGAUCUGCACUU | -0.177 |
| UGGCCCUGGUGGCAUGCGCGGAGGAAGAGGUGGCCUCAUGGAUCGUGGUGGUCCCGGUGGAAUGUUCAGAGGUGGCCGUGGUGGAGACAG | 0.946 |
| CUGUGCUACACAUCGUAUGUACCGAAUCGGGGAAAAAAAGGGGAAAAAAAGGAAAAAAAGGAAAGUAUUAUGUUACGCCGUUCGGAUCUG | 0.0892 |
| UGGCCCUGGUGGCAUGCGGGGAGGAAGAGGUGGCCUCAUGGAUCGUGGUGGUCCAGGUGGAAUGUUCAGAGGUGGCCGUGGUGGAGACAG | 0.411 |
| CAAGUCCUGUGCUACACAUCGUAUGUACCGAAUCGGGAAAGGGGAAAGGGAAAGGAAAGUAUUAUGUUACGCCGUUCGGAUCUGCACUUC | -0.205 |
| CCUGUGCUACACAUCGUAUGUACCGAAUCGGGGUUUUUUGGUUUUUUGGGGUUUUUUGGGAAAGUAUUAUGUUACGCCGUUCGGAUCUGC | -0.289 |
| UGUGCUACACAUCGUAUGUACCGAAUCGGGGUUUUUUUGGGGUUUUUUUGGGUUUUUUUGGGAAAGUAUUAUGUUACGCCGUUCGGAUCU | -0.153 |
| AAGUCCUGUGCUACACAUCGUAUGUACCGAAUCGGGUUUUUUUGGGUUUGGGAGGGAAAGUAUUAUGUUACGCCGUUCGGAUCUGCACUU | 0.247 |
| AAGUCCUGUGCUACACAUCGUAUGUACCGAAUCGGUUUGGUUUUUGGUUUUUUUGGAAAGUAUUAUGUUACGCCGUUCGGAUCUGCACUU | -0.178 |
| UAACUUUAGAGGAGGAUCUGAUGGAUAUGGCAGUGUACGUGGAUUUGGGGAUGGCUAUAAUGGGUAUGGAGGAGGACCUGGAGGUGGCAA | -0.599 |
| UGUGCUACACAUCGUAUGUACCGAAUCGGGGUUUUUUUGGGGAAAAAGGGGUUUUUUUGGGGAAAGUAUUAUGUUACGCCGUUCGGAUCU | 1.15 |

Series 3 — target: CCND1, cyclin fold, Cln2 fusion (human); method: yeast growth competition, sequencing; matrix: yeast; setting: weak parent motif; reference: not given; direction: higher = stronger binding
Starting sequence: PKMYT1 docking peptide (human); SFEPRNLLSLFED
| Substitution | normalised enrichment score |
| --- | --- |
| L10S | 0.93 |
| L7W | 1.07 |
| N6Q | 1.08 |
| S1Y | -0.377 |
| D13Q | 1.08 |
| N6T | 1.22 |
| L10H | 1.07 |
| F2E | 0.473 |
| L8R | 1.08 |
| S1M | 0.274 |
| P4N | 0.913 |
| S9T | 0.478 |
| E3Q | 0.537 |
| E12A | 1.19 |
| F11Y | 1.3 |
| F2S | 0.24 |
| S1E | 0.651 |
| L7S | 0.987 |
| R5V | 1.4 |
| F11L | 0.766 |
| L10Q | 1.31 |
| E3T | 0.455 |
| E12R | 0.632 |
| S1K | -0.473 |
| L10G | 1.5 |

Series 4 — method: RNA Bind-n-Seq; form: RNA; matrix: in vitro; tested at: 365 nM; reference: no-protein control; direction: higher = stronger binding
Target: RNA binding protein fox-1 homolog 2, RRM domain, GST-SBP tag (RBFOX2, Homo sapiens, UniProt O43251-10, residues 100-194)
Setting: natural RNA segment, single round, ends assumed
Constant ends, left off below: GGGAGUUCUACAGUCCGACGAUC … UGGAAUUCUCGGGUGCCAA
Construct (chain): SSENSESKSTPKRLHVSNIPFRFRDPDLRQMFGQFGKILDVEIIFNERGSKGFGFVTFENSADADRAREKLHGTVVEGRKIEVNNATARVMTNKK
| Sequence | RBNS enrichment (R) |
| --- | --- |
| GACAUGGUGGUGGGGGAAGGACGGGUGGGCAAGGCUGGUGCGUUCCCCAGCUCUCCCUACGCUGCUCGGGCCAUUGCCCAGCCAGAUGUGGUCACCUCAGUCCAGCUCUG | 0.413 |
| UGUGGUUGACAAUUCUGUAUUGACUAAAGGCAAUAUUGUCACCUGUCUCAUUAAAAAUUAGUUUCCAGUUAGGCAGAUGAAUAACACUAUUAAAAAUGCACCCAGUUUUG | 0.47 |
| UCUUUGGGCUGAAAAAGAAACCCUUUGAUCACAAUCCGGGUGUAGGGACCAAGGCUGGAAAAGUGAUGAAGCUUCCUCCCACUGCUGCAAGAAAAAGGCAGAGGCUUCAG | 1.2 |
| GGAGAGAGCUAGUGGCUUAAAAGGCCUGGGGUGGUGGGGAGAUCACACCACUCUCAACCAUACUCUGUUCCUGUGAGGCCCCCAUCACCACCUCCGUGCAGGGUCCUAGC | 0.308 |
| GAAAUAUGGAUAGUUGUGGCCACCUGCUGACUAUUUGUGGUUUAAAAUAAAAAGGUUUUCUUGUCUGAAAAUAUCCACCUGUUUGUGUCUUUACUAAAUGUAAGAAGUGA | 0.784 |
| UUCCUGGGGGCGUGGCCAAGCCCUCCUCUUCCCAGAAUUGGCCCGGGGCCUUCAAUUUACGUUCUUUACACUACGGGGACUGGGGUCGUCUUUGCCCACGUCCCGACAAC | 0.55 |
| CACAUUGAUCCCAUUUCUGGAACAUUUUUCCUAUUUCCAGAGUUACAUAUGUUCUUUUGUCAUUACCCAAUUUAACCUCCCUUUCUCUGAUAUGCCUUGUAGCCAAAGUA | 0.919 |
| UGAGCCCCAAGCCCCUUGGCCCACCACCCUGUUGUCUGAAGGGCUCUGUCUCACUCCACCUCCUUAUCUGCCAGCAUUGCUGUUUCCUGCAAAGGAUUAUGGGAAACUCC | 0.327 |
| GCUGGGCUGGGCUUUGCCUUUCAGCAUUCUGUCUGUCUCACUGGUCAUGCAUUGUUCCAUAGUCGCCCUCAUGGGGUCAUUUCAUGCCUCCAGGCGGGGCCCGGAAGUAG | 0.379 |
| AACAAAAUUGUGGUAUUCAUGACCCAUUUAAUUUACUGAAAAAUCAUAACUGCUGUCCUGCCUGCUCUCCUUGGGUUUCGGUUUUAAAAGCCUUUGUGGUUGAAAUGAAU | 0.228 |
| UGUGUUUUUCUUCUUGUUGUUUUAGAACUUUUUCAAAAACAAACAAGACAAACAAACAUAAAAAUAGGCCUUCUUUAGAUUUAUAGCAGUGACUUUUACACACUCUCACA | 0.347 |
| GAGGAACACAACAUUAAGCCAUUAGAAUAGAAGAGCUGUUGUCUCCUGUUUCUCUAACACUAACAUGGAUAACCUAAGGGAAGUGCCAGCCGCUGUUGGCAGGGUAUUAA | 0.586 |

Series 5 — method: protein-binding microarray; form: double-stranded DNA, one strand shown; matrix: in vitro; tested at: 0.8 µM; setting: whole 60-bp probe, no competitor; direction: higher = stronger binding; constant ends, left off below: … GTCTTGATTCGCTTGACGCTGCTG
Target: Centromere-binding protein 1, full length, N-terminal tag (CBF1, Saccharomyces cerevisiae, UniProt P17106, residues 1-351)
Sequence of UniProt P17106 (whole entry, looked up): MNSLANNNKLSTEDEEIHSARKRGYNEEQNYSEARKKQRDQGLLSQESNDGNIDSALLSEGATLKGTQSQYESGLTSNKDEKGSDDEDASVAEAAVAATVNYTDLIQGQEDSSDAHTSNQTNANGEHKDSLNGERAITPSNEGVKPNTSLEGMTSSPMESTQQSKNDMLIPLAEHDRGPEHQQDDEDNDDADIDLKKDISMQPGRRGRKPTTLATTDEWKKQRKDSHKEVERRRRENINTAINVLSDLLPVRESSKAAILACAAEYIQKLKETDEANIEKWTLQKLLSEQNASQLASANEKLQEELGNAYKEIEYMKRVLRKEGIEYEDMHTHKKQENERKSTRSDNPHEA
| Sequence | fluorescence intensity [a.u.] |
| --- | --- |
| CCTAACTACTATAACCACCAATGATAGCTTCGTACA | 502 |
| CCTAACTACTATAATCACGGGGCATAGCTTCGTACA | 1230 |
| CTATACTATCCGTGAAGCGTGACCGGCCCTTCTTTC | 1160 |
| CTATAAAGAAAAGGTCATCACTTTTTTTCGTACTTC | 534 |
| CTAGCTTCATGAGGGCATGTGATTTCATTGCATTTC | 2100 |
| GAAATGCACATCAGCCTCGTGACAGATGAGGATTAG | 1330 |
| GAACCCGGCCTGGACACCATCACCAACACTTCTTAG | 527 |
| TGTACGAAGCTATATGTGATGAATATAGTAGTTAGG | 545 |
| GAAGCGTATAGTAGGCACGTGGTAGTCCACCCGTAG | 5170 |
| CTACTCATAAAGCACGTGGCCTCTTATCGAGAATTC | 10100 |
| GAAATGAATGCGGCAGTGGTGATGAAGGAGATATAG | 548 |
| GAATGTCAATCACTTCACGGGACCAGTAACTCATAG | 1200 |
| GAATCATCGGTGGCAAACGTGTTTACAGGACTATAG | 509 |
| CCTAACTACTATAAACACGTGATATAGCTTCGTACA | 11900 |
| GAATCTTTACTGTGCAATCACATGTACAAGGCTTAG | 2060 |
| CTAGGGGACTGACATCAGGTCAACATTATTATTTTC | 511 |
| GAAATCATGTCATTGAACGTGTTACGTCTATTATAG | 551 |
| CTAAAGTGATCACGTGGTCAGACAGTTTTCCAGTTC | 30400 |

For quick reference, copied from above (series 3):
| Substitution | normalised enrichment score |
| --- | --- |
| P4N | 0.913 |
| S9T | 0.478 |
| E3Q | 0.537 |
| E12A | 1.19 |
| F11Y | 1.3 |
| F2S | 0.24 |
| S1E | 0.651 |
| L7S | 0.987 |
| R5V | 1.4 |
| F11L | 0.766 |
| L10Q | 1.31 |
| E3T | 0.455 |
| E12R | 0.632 |
